Measured values of several laboratories.
Compare with care: the assays were run in different laboratories. ± marks the error that the study gave.

With Cc1cc(OCc2nnc(SC3CCCC3)n2-c2cccnc2)ccc1-c1ccc(S(C)(=O)=O)cc1 the viability was 59 ± 1% (Huh-7 cells, uninfected; 0.1 µM, 5 days).
The Papp A-B of COc1ccc2c(O[C@@H]3C[C@H]4C(=O)N[C@]5(C(=O)NS(=O)(=O)C6CC6)C[C@H]5/C=C\CCCCN(C)C(=O)[C@@H]4C3)cc(-c3nc(C(C)C)cs3)nc2c1C is reported as 0.5 ± 0.21 ×10⁻⁶ cm/s (Caco-2 monolayer; added: efflux inhibitor cocktail).
With CCCN(Cc1ccccc1OC)C(=O)c1ccc(Br)c(Br)c1 the IC50 was 28 ± 6.4 µM (HEK293; cell viability, MTT; 72 h).
Under “minimum cytotoxic concentration”, CC(=O)OC[C@H]1O[C@@H](n2cc3c(C#CC4(O)c5ccccc5-c5ccccc54)c(-c4ccc(C)cc4)oc3nc2=O)C[C@@H]1OC(C)=O is recorded as 100 µM (HEL human embryonic lung; cell morphology).
The IC50 of CC1=C(CC(=O)Oc2ccc(-c3cc(=S)ss3)cc2)c2cc(F)ccc2/C1=C\c1ccc([S+](C)[O-])cc1 (stereo not drawn) is reported as 100 µM (HepG2 and LS180; EROD activity, inhibitor; 24 h, averaged over cell lines, added: benzo[a]pyrene 1 µM).
COc1ccc(N(C(=O)Nc2c(C)cccc2C)c2cc(Nc3ccc(N4CCN(C)CC4)cc3)ncn2)c(OC)c1 gave a CC50 of 5 ± 2.5 µM (mouse BMDCs; added: zymosan A).
CC(=O)OC[C@H]1O[C@@H](n2cc3c(C#CCCN4C(=O)c5ccccc5C4=O)c(-c4ccc(C)cc4)oc3nc2=O)C[C@@H]1OC(C)=O: “minimum cytotoxic concentration” 100 µM (HEL human embryonic lung; cell morphology).
The IC50 of CCN(CC)c1cc2[nH]c(C3CCCCC3)nc2cc1NC(=O)c1ccc(OC(F)(F)F)cc1 is reported as > 100 µg/mL (Vero; cytotoxicity, Alamar Blue; 3 days, 37 °C).
CCCC[C@H](NC(C)=O)C(=O)N[C@H]1CCC(=O)NC[C@@H](C(=O)N[C@@H](Cc2c[nH]c3ccccc23)C(N)=O)NC(=O)[C@H](CCCNC(=N)N)NC(=O)[C@@H](Cc2ccccc2)NC(=O)[C@H](Cc2c[nH]cn2)NC1=O has an AUC(0-t) of 3750 ng·h/mL (female rat, plasma; subcutaneous, 5 mg/kg/day, multiple doses, once daily).
Cc1nc2ncnn2c(N2CCN(c3ccc(Cl)cc3)CC2)c1C — result for “cytotoxicity onset concentration”: > 17.9 µM (BRE-Luc reporter cells; luciferase counter screen).
For C[C@H]1O[C@@H](O[C@H]2CC[C@@]3(C)[C@@H](CC[C@]4(C)[C@@H]3C=C[C@]35OC[C@@]6(CCC(C)(C)C[C@H]63)[C@H](O)C[C@]54C)[C@]2(C)CO)[C@H](O)[C@@H](O[C@@H]2O[C@H](CO)[C@@H](O)[C@H](O)[C@H]2O)[C@H]1O, “recovery apical to basolateral” read 64.3% (Caco-2 monolayer; Caco-2 bidirectional transport; 10 µM, 3 h, 37 °C).
CN(C)c1cc2[nH]c(C3CCCCC3)nc2cc1NC(=O)c1ccc(C(C)(C)C)cc1 has an IC50 of > 100 µg/mL (Vero; cytotoxicity, Alamar Blue; 3 days, 37 °C).
CC(C)(C)c1cc(C(C)(C)C)c(NC(=O)c2c[nH]c3ccccc3c2=O)cc1O — result for “accumulation in monolayer”: 46 to 83% (Calu-3; 3-10 µg/mL, 4 h, 37 °C, apical to basal transport).
CCCCCc1ccc(C#Cc2c(-c3ccc(C)cc3)oc3nc(=O)n([C@H]4C[C@H](OC(C)=O)[C@@H](COC(C)=O)O4)cc23)cc1: “minimum cytotoxic concentration” 20 µM (HEL human embryonic lung; cell morphology).
For CCCC(C)OC(=O)Nc1cc2nc(C3CCCCC3)[nH]c2cc1N(CC)CC (stereo not drawn), the IC50 was > 100 µg/mL (Vero; cytotoxicity, Alamar Blue; 3 days, 37 °C).
CCCc1cc(=O)oc2cc(OCc3cc(=O)c(O)co3)ccc12 has a viability of > 80% (HEK293; CCK-8; 4 to 108 µM, 24 h).
CC(=O)OCC#Cc1c(-c2ccc(C)cc2)oc2nc(=O)n([C@H]3C[C@H](OC(C)=O)[C@@H](COC(C)=O)O3)cc12 — result for “minimum cytotoxic concentration”: > 100 µM (HEL human embryonic lung; cell morphology).
O=C(Nc1cc2ccccc2cc1C(=O)O)c1ccccc1 has a viability of > 50% (HUVEC; MTT; up to 100 µM).
Under “minimum cytotoxic concentration”, CC(=O)OC[C@H]1O[C@@H](n2cc3c(C#CCCO)c(-c4ccc(C)cc4)oc3nc2=O)C[C@@H]1OC(C)=O is recorded as > 100 µM (HEL human embryonic lung; cell morphology).
The tissue uptake of CC(C)[C@H](NC(=O)[C@@H]1CCCN1C(=O)[C@H](CCCNC(=N)N)NC(=O)[C@H](CS)NC(=O)[C@H](Cc1c[nH]c2ccccc12)NC(=O)[C@H](CCCNC(=N)N)NC(=O)[C@@H](Cc1ccccc1)NC(=O)[C@H](Cc1c[nH]cn1)NC(=O)[C@H](CCC(=O)O)NC(=O)[C@H](CS)NC(=O)[C@H](CS)NC(=O)[C@H](CCCCN)NC(=O)[C@@H]1CC(=O)N[C@@H](CCCNC(=N)N)C(=O)N[C@@H](C)C(=O)N[C@@H](CC(=O)O)C(=O)N[C@H](Cc2ccc(O)cc2)C(=O)N1)C(N)=O [technetium-99m labelled] is reported as 0.05 ± 0.02 %ID/g (C57 mice, blood; intravenous, 0.037 MBq, 24 h).
For CCCN(Cc1ccccc1OC)C(=O)c1cccc(C(F)(F)F)c1, the IC50 was 29 to 31 µM (HEK293; cell viability, MTT; 72 h).
For Cn1c(=O)c2c(ncn2Cc2nnc(SCC(=O)Nc3ccc(Cl)c(Cl)c3)n2-c2ccccc2)n(C)c1=O, the haemolysis was 5.5% (bovine erythrocytes; 1 mg/mL, 30 min, 37 °C).
CC(=O)OC[C@H]1O[C@@H]([Se]Cc2ccc3ccccc3n2)[C@H](OC(C)=O)[C@@H](OC(C)=O)[C@@H]1OC(C)=O gave a CC50 of 26.6 µM (J774; cell growth or viability, WST-1; 24 h).
CCCCCCCC/C=C\CCCCCCCCOC(=O)C1=C(C)NC(=S)NC1c1cccc(Cl)c1 (stereo not drawn) has a viability of ~70% (C2C12; cell growth or viability, MTT; 10 µM, 48 h).
With O=C(Nc1cc2nc(C3CCCCC3)[nH]c2cc1N1CCCC1)c1ccc(Br)cc1 the IC50 was > 100 µg/mL (Vero; cytotoxicity, Alamar Blue; 3 days, 37 °C).
CCCCCCCCCCCC[N+](C)(C)C has a CC50 of 1030 µM (horse PBMCs; resazurin viability).
COC(=O)N[C@H](C(=O)N1CCC[C@H]1c1nc(-c2ccc(-c3ccc(-c4c[nH]c([C@@H]5CCCN5C(=O)[C@@H](NC(=O)OC)C(C)C)n4)cc3)cc2)c[nH]1)C(C)C has an efflux ratio of 3.7 (Caco-2 monolayer; added: efflux inhibitor cocktail; B-A over A-B).
CN(C)c1cc2[nH]c(C3CCCCC3)nc2cc1NC(=O)c1ccco1 has an IC50 of > 100 µg/mL (Vero; cytotoxicity, Alamar Blue; 3 days, 37 °C).
CC(C)[C@H](NC(=O)[C@@H]1CCCN1C(=O)[C@H](CCCNC(=N)N)NC(=O)[C@H](CS)NC(=O)[C@H](Cc1c[nH]c2ccccc12)NC(=O)[C@H](CCCNC(=N)N)NC(=O)[C@@H](Cc1ccccc1)NC(=O)[C@H](Cc1c[nH]cn1)NC(=O)[C@H](CCC(=O)O)NC(=O)[C@H](CS)NC(=O)[C@H](CS)NC(=O)[C@H](CCCNC(=N)N)NC(=O)[C@@H]1CC(=O)N[C@@H](CCCNC(=N)N)C(=O)N[C@@H](C)C(=O)N[C@@H](CC(=O)O)C(=O)N[C@H](Cc2ccc(O)cc2)C(=O)N1)C(N)=O [technetium-99m labelled] has a tissue uptake of 46.3 ± 2.59 %ID (C57 mouse, urinary bladder; intravenous, 0.037 MBq, 0.5 h).
The IC50 of CN(C)c1cc2[nH]c(C3CCCCC3)nc2cc1NC(=O)c1ccc(OC(F)F)cc1 is reported as > 100 µg/mL (Vero; cytotoxicity, Alamar Blue; 3 days, 37 °C).
Cn1c(=O)c2c(ncn2Cc2nnc(SCC(=O)Nc3ccccc3Cl)n2-c2ccccc2)n(C)c1=O has a haemolysis of 8.6% (bovine erythrocytes; 1 mg/mL, 30 min, 37 °C).
The viability of CCCCCCCC/C=C\CCCCCCCCOC(=O)C1=C(C)NC(=S)NC1c1ccc(C)cc1 (stereo not drawn) is reported as ~70% (C2C12; cell growth or viability, MTT; 10 µM, 48 h).
The IC50 of C=Cc1cccc(C(=O)Nc2cc3nc(C4CCCCC4)[nH]c3cc2N(CC)CC)c1 is reported as > 100 µg/mL (Vero; cytotoxicity, Alamar Blue; 3 days, 37 °C).
CCN(CC)CCNC(=O)c1c(C)[nH]c(/C=C2\C(=O)Nc3ccc(F)cc32)c1C — result for “maximum trough plasma concentration”: 61.9 ng/mL (human, plasma; oral, 15 mg/m2, day 14).
Cc1ccc(NC(=O)CSc2nnc(Cn3cnc4c3c(=O)n(C)c(=O)n4C)n2-c2ccccc2)c(C)c1 has a haemolysis of 2.7% (bovine erythrocytes; 1 mg/mL, 30 min, 37 °C).
C#C[C@]1(COP(=O)(O)OP(=O)(O)OP(=O)(O)O)O[C@@H](n2cnc3c(N)nc(F)nc32)C[C@@H]1O has a half-life of 171 h (human PBMC tumour model; host not given, plasma; oral, 100 mg, single dose, fasted).
`Telavancin` gave an uptake clearance of 9.6 ± 0.6 µL/mg protein/h (J774 mouse macrophages; 90 mg/L, 37 °C, 10% fetal calf serum).
For CCCCCCCC/C=C\CCCCCCCCOC(=O)C1=C(C)NC(=S)NC1c1ccccc1O (stereo not drawn), the viability was ~70% (C2C12; cell growth or viability, MTT; 10 µM, 48 h).
With Cn1c(=O)c2c(ncn2Cc2nnc(SCC(=O)Nc3ccc(Cl)cc3)n2-c2ccccc2)n(C)c1=O the haemolysis was 8.9% (bovine erythrocytes; 1 mg/mL, 30 min, 37 °C).
With COC(=O)N[C@H](C(=O)N[C@@H](Cc1ccccc1)[C@@H](O)CN(Cc1ccc(-c2ccccn2)cc1)NC(=O)[C@@H](NC(=O)OC)C(C)(C)C)C(C)(C)C the efflux ratio was 2.3 (Caco-2 monolayer; added: efflux inhibitor cocktail; B-A over A-B).
For CN(C)c1cc2[nH]c(C3CCCCC3)nc2cc1NC(=O)c1ccc(OC(F)(F)F)cc1, the IC50 was > 100 µg/mL (Vero; cytotoxicity, Alamar Blue; 3 days, 37 °C).
The viability of CCOC(=O)CNC(=O)[C@H](CS)NC(=O)CC[C@H](N)C(=O)O is reported as ~50% (OVCAR-5; concentration not given, NEM pretreatment then CuAAC, added: NEM 100 µM).

Some of these lines once more:
The IC50 of CC1=C(CC(=O)Oc2ccc(-c3cc(=S)ss3)cc2)c2cc(F)ccc2/C1=C\c1ccc([S+](C)[O-])cc1 (stereo not drawn) is reported as 100 µM (HepG2 and LS180; EROD activity, inhibitor; 24 h, averaged over cell lines, added: benzo[a]pyrene 1 µM).
For CCCCCCCC/C=C\CCCCCCCCOC(=O)C1=C(C)NC(=S)NC1c1ccccc1O (stereo not drawn), the viability was ~70% (C2C12; cell growth or viability, MTT; 10 µM, 48 h).
With CCCN(Cc1ccccc1OC)C(=O)c1ccc(Br)c(Br)c1 the IC50 was 28 ± 6.4 µM (HEK293; cell viability, MTT; 72 h).
For Cn1c(=O)c2c(ncn2Cc2nnc(SCC(=O)Nc3ccc(Cl)c(Cl)c3)n2-c2ccccc2)n(C)c1=O, the haemolysis was 5.5% (bovine erythrocytes; 1 mg/mL, 30 min, 37 °C).
With Cc1cc(OCc2nnc(SC3CCCC3)n2-c2cccnc2)ccc1-c1ccc(S(C)(=O)=O)cc1 the viability was 59 ± 1% (Huh-7 cells, uninfected; 0.1 µM, 5 days).
Under “minimum cytotoxic concentration”, CC(=O)OC[C@H]1O[C@@H](n2cc3c(C#CC4(O)c5ccccc5-c5ccccc54)c(-c4ccc(C)cc4)oc3nc2=O)C[C@@H]1OC(C)=O is recorded as 100 µM (HEL human embryonic lung; cell morphology).
CC(C)(C)c1cc(C(C)(C)C)c(NC(=O)c2c[nH]c3ccccc3c2=O)cc1O — result for “accumulation in monolayer”: 46 to 83% (Calu-3; 3-10 µg/mL, 4 h, 37 °C, apical to basal transport).
